Assay results gathered from unrelated publications.
A part holds a random share of what one study measured.
UniProt P32298, sequence (whole entry, looked up): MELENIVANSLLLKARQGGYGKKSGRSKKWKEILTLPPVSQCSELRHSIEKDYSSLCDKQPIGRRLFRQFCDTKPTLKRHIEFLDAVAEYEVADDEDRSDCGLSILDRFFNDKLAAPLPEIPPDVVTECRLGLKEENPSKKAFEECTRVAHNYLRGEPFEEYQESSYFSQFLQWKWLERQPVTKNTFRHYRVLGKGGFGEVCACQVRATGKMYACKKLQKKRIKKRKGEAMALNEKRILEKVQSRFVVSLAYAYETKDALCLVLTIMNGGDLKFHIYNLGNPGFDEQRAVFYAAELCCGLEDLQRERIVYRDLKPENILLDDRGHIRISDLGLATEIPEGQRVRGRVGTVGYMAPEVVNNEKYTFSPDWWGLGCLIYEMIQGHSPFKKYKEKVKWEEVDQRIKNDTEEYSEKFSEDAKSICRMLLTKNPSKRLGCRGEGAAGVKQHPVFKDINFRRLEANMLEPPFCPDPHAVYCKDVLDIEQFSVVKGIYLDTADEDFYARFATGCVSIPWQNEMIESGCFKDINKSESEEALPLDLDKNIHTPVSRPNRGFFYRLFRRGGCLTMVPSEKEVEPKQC
UniProt Q7KZI7, sequence (whole entry, looked up): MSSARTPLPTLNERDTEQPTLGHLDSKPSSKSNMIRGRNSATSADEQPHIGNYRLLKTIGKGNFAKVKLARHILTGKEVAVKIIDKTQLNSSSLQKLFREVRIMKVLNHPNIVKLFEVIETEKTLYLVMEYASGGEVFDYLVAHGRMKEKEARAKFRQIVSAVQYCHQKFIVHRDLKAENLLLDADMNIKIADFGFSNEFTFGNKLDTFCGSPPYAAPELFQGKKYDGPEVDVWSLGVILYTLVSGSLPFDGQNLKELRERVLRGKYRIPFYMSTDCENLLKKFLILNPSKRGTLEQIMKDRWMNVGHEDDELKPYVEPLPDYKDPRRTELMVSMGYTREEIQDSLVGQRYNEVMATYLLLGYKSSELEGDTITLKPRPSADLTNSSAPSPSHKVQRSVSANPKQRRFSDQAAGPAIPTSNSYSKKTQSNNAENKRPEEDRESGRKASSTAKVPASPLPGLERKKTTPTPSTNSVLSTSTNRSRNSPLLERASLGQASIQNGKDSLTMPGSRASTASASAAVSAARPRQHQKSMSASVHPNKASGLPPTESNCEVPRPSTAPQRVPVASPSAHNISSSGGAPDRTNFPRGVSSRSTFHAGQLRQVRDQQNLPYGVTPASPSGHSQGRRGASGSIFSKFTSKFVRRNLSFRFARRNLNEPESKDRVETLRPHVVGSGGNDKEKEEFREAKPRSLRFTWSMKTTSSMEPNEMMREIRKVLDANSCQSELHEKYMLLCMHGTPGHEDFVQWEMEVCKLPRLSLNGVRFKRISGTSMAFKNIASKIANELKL
UniProt Q16539, sequence (whole entry, looked up): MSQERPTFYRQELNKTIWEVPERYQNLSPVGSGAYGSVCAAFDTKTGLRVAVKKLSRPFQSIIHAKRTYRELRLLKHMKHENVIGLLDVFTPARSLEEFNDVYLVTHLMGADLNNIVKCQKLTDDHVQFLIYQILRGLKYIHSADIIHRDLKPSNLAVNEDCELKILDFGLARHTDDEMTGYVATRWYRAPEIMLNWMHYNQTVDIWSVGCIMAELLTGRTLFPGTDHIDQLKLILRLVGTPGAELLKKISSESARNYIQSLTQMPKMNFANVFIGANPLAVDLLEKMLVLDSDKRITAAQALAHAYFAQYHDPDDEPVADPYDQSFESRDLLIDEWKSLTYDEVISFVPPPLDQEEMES
UniProt Q86UE8, sequence (whole entry, looked up): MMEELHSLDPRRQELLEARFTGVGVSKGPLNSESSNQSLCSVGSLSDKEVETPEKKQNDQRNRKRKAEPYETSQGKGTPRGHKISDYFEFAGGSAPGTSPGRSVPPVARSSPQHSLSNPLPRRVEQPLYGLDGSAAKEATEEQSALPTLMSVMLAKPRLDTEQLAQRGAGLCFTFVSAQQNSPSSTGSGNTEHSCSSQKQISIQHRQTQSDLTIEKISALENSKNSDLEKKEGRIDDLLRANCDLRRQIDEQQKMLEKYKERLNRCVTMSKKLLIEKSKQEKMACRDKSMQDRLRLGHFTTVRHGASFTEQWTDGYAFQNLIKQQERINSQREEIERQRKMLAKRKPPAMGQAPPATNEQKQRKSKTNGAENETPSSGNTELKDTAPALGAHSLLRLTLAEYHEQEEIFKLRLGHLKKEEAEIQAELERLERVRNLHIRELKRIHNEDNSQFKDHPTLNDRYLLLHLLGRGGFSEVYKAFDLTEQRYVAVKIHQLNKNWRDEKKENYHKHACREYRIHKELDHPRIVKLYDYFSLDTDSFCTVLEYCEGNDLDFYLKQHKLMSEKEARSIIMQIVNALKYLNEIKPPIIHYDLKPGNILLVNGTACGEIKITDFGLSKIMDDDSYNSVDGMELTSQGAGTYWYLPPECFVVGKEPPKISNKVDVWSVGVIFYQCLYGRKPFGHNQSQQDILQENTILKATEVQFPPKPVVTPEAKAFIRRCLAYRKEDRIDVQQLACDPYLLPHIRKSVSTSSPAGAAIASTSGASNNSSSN
UniProt P42681, sequence (whole entry, looked up): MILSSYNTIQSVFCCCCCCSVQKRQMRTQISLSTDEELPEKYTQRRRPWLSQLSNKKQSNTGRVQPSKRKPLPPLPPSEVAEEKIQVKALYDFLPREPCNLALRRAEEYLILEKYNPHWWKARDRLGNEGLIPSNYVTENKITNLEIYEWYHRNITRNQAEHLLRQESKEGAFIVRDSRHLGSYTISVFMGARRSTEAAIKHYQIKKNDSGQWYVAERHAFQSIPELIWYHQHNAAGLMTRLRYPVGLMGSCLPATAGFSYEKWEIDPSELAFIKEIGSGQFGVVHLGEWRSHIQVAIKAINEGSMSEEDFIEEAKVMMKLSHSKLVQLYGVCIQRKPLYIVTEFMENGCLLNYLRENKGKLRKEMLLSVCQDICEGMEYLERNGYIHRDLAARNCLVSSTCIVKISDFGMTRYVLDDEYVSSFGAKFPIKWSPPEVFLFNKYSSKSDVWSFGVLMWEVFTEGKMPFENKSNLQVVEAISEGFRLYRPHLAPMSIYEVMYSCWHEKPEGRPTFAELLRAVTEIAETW
UniProt P31751, sequence (whole entry, looked up): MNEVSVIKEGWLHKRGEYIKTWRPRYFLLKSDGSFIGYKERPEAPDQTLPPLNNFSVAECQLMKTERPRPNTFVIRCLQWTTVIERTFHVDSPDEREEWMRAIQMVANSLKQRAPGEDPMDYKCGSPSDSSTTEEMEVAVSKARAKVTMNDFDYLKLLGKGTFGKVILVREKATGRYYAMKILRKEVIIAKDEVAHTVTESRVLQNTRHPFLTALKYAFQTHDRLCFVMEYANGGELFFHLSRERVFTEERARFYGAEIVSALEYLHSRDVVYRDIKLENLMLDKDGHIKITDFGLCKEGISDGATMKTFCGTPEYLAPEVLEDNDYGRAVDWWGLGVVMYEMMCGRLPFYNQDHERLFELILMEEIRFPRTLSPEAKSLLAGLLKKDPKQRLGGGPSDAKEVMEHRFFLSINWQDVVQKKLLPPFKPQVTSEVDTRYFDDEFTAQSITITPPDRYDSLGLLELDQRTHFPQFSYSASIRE
UniProt P50750, sequence (whole entry, looked up): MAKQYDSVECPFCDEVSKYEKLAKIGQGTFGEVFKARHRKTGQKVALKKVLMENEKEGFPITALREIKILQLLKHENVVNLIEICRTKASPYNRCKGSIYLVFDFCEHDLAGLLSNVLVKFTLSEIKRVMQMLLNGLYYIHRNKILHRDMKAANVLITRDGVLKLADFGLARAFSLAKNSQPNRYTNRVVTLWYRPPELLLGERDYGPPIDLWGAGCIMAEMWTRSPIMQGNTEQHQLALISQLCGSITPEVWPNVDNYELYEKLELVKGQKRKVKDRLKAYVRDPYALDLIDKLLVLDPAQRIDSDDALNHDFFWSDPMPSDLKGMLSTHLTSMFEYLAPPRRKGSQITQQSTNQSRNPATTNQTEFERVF
UniProt Q8N568, sequence (whole entry, looked up): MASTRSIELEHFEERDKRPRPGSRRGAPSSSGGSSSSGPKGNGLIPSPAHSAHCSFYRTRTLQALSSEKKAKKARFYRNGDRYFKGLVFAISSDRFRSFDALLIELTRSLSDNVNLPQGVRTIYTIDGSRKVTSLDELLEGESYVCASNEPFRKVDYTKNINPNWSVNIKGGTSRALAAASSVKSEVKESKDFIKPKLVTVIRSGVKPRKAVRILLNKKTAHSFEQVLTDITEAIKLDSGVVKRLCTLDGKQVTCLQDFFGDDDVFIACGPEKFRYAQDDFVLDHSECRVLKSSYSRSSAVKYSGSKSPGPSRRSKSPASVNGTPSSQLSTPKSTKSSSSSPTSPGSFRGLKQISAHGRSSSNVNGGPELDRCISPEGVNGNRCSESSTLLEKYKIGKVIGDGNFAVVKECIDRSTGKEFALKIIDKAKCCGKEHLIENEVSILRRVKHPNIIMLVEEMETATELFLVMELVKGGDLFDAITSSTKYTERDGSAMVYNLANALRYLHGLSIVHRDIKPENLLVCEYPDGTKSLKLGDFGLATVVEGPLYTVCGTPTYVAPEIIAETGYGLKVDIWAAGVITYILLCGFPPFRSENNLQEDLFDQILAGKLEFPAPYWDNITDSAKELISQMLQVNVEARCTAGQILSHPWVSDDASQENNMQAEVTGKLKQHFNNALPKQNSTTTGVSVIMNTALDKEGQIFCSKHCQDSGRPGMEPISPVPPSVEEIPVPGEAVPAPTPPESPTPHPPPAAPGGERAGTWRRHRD
UniProt Q15759, sequence (whole entry, looked up): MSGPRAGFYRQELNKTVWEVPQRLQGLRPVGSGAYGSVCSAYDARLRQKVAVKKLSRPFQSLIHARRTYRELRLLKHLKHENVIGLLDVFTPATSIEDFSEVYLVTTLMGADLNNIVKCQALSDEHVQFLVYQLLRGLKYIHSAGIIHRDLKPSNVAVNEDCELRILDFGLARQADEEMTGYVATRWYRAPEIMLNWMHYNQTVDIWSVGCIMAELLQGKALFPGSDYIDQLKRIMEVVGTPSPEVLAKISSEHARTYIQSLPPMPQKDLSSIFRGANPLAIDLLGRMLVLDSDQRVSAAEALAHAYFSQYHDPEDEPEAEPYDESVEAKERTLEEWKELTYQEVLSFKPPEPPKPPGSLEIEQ

Set 1
Target: UDP-N-acetylglucosamine--peptide N-acetylglucosaminyltransferase 110 kDa subunit (OGT, Homo sapiens, UniProt O15294)
Effect on: binding
Technique: phage display NGS
Molecule type: peptide
Baseline: input library
Residues (O15294 1-1046): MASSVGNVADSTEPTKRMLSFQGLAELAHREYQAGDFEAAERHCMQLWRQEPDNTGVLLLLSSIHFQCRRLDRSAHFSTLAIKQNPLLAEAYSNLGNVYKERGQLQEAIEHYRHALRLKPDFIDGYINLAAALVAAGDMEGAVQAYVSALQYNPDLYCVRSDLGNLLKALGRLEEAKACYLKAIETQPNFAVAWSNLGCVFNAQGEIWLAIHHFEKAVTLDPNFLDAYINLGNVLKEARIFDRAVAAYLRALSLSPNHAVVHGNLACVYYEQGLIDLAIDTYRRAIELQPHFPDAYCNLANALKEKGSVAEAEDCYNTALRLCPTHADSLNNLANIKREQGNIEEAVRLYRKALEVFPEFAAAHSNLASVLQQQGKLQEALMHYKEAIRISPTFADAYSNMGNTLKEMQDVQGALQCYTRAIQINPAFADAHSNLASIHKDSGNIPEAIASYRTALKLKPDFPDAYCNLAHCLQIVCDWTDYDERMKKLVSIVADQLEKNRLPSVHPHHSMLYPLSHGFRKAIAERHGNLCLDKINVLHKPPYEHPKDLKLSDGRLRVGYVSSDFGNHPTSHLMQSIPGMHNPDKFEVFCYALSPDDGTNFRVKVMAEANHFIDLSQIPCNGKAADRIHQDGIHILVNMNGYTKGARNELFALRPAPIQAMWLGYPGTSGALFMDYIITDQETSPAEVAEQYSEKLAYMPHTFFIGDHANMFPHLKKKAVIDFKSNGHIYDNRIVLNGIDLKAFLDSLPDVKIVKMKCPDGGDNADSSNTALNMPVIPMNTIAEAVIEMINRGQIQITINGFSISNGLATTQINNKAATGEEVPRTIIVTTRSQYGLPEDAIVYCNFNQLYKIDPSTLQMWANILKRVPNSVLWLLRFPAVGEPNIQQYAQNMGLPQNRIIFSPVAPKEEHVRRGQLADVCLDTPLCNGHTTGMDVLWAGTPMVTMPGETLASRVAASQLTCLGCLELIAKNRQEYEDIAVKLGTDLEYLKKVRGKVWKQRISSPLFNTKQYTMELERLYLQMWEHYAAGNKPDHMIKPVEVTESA
Sequence	minimum log2 enrichment ratio
HLSQDHHPKRQKHTH	2.3
HWHSAAIDPHRHRGE	2.34
YERDYQHFMPQYQIM	1.25
HPMIDRHKHTPWNKH	2.08
YTTHKHHNTTNFVAV	2.55
VTSLGNSPFMPFYQI	3.26
QQYFLPMYQIQFRNM	4.8
HQLDQRRGHVHGHME	2.31

Set 2
Cell line: mouse MPNST tumor cells
Technique: high-content nuclear imaging
Item: cell number
Tested at: 10 µM
Time: 12 h
Notes: mean of 2 replicates
Baseline: plate mean
Direction: higher = more cells
SMILES	nuclei count [z-score]
CC(=O)O[C@H]1C[C@@H]2CC[C@@H]3[C@H](CC[C@@]4(C)[C@H]3C[C@H]([N+]3(C)CCCCC3)[C@@H]4OC(C)=O)[C@@]2(C)C[C@@H]1[N+]1(C)CCCCC1	0.492
O=C(N[C@H]1CN2CCC1CC2)c1ccc2c(c1)OCCO2	1.18
Cc1nnc2ccc(-c3cccc(C(F)(F)F)c3)nn12	1.59

Set 3
Target: His6 tag
Technique: AlphaScreen counter screen
Tested at: concentration not given
SMILES	inhibition [%]
CN1C(=O)NC(=O)C(=CNc2ccc(F)cc2)C1=O	-0.95
COc1ccc(N2C(=O)NC(=O)C(=CNc3cccc(C)c3)C2=O)cc1	1.4
CC(=O)c1cccc(NC=C2C(=O)NC(=O)N(c3ccccc3)C2=O)c1	-3.95

Set 4
Structure (SMILES): COC[C@H]1OC(=O)c2coc3c2[C@@]1(C)C1=C(C3=O)[C@@H]2CCC(=O)[C@@]2(C)C[C@H]1OC(C)=O
Effect on: enzyme activity
Mode: inhibitor
Tested at: 0.5 µM
Baseline: control
target	remaining activity
Vascular endothelial growth factor receptor 2 (KDR, Homo sapiens, UniProt P35968)	88.4%
Mitogen-activated protein kinase 14 (MAPK14, Homo sapiens, UniProt Q16539)	120%
Serine/threonine-protein kinase MARK2 (MARK2, Homo sapiens, UniProt Q7KZI7)	93%
Serine/threonine-protein kinase tousled-like 2 (TLK2, Homo sapiens, UniProt Q86UE8)	99.5%
Mitogen-activated protein kinase 11 (MAPK11, Homo sapiens, UniProt Q15759)	91.6%
Dual specificity mitogen-activated protein kinase kinase 1 (MAP2K1, Homo sapiens, UniProt Q02750)	97.3%
RAC-beta serine/threonine-protein kinase (AKT2, Homo sapiens, UniProt P31751)	94.2%
Rho-associated protein kinase 1 (ROCK1, Homo sapiens, UniProt Q13464)	90.7%
Myosin-IIIb (MYO3B, Homo sapiens, UniProt Q8WXR4)	86.4%
G protein-coupled receptor kinase 4 (GRK4, Homo sapiens, UniProt P32298)	95.3%
cGMP-dependent protein kinase 2 (PRKG2, Homo sapiens, UniProt Q13237)	101%
Cyclin-dependent kinase 9, with cyclin K (CDK9, Homo sapiens, UniProt P50750)	107%
Tyrosine-protein kinase TXK (TXK, Homo sapiens, UniProt P42681)	99%
Serine/threonine-protein kinase DCLK2 (DCLK2, Homo sapiens, UniProt Q8N568)	96.7%

Mixed results
Cell line: HaCaT
Tested at: 100 µM
Time: 18 h
Compound	viability [%]
CC(C)=CCOc1c2occc2cc2ccc(=O)oc12	54.9
C[C@@H]1C[C@@H]([C@H](O)CC2CC(=O)NC(=O)C2)C(=O)[C@@H](C)C1	89.1

For quick reference, copied from above (set 1):
Sequence	minimum log2 enrichment ratio
YTTHKHHNTTNFVAV	2.55
VTSLGNSPFMPFYQI	3.26
QQYFLPMYQIQFRNM	4.8
